Published values collected from several papers.
Every numbered part comes from another study and shows a few of its results, in no order. Substitutions count along the parent as printed.
Sequence of UniProt Q9H2K8 (whole entry, looked up): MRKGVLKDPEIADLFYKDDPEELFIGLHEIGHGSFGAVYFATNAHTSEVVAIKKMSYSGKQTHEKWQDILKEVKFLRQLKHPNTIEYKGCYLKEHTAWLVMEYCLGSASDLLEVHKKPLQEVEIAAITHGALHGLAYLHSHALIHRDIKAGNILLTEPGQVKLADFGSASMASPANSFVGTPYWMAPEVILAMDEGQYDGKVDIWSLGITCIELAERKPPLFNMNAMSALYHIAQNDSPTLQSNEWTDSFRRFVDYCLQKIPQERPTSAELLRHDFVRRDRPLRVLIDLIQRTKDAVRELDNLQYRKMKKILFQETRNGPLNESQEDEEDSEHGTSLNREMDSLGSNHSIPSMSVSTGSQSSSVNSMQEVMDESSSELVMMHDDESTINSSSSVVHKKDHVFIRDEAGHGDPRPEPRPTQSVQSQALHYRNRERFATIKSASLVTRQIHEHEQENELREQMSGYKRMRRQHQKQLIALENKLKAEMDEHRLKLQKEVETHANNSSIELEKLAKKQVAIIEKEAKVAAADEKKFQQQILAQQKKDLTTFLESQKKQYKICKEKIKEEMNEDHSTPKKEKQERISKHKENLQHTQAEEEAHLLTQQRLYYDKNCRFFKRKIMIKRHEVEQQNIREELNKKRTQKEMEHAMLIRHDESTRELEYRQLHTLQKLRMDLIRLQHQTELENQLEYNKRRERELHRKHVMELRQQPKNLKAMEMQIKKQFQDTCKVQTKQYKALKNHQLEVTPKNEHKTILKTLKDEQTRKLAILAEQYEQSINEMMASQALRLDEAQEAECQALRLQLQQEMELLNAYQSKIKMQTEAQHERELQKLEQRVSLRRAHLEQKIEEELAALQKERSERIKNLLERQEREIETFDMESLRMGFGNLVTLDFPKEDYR
Sequence of UniProt Q8TD08 (whole entry, looked up): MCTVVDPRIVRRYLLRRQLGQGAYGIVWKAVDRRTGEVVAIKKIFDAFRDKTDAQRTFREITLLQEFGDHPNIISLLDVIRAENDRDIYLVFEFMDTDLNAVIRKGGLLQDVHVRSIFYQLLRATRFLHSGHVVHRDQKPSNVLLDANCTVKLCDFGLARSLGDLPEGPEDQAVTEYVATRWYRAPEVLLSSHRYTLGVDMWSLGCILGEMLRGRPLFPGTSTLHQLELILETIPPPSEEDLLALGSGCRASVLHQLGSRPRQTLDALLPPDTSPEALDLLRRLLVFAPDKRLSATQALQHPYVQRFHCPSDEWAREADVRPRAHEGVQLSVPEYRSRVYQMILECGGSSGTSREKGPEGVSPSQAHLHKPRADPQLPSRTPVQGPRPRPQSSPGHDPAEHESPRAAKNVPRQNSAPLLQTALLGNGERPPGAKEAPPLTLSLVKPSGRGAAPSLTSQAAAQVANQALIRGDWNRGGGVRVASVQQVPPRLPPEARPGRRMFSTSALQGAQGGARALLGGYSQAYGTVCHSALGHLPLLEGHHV
Sequence of UniProt O95382 (whole entry, looked up): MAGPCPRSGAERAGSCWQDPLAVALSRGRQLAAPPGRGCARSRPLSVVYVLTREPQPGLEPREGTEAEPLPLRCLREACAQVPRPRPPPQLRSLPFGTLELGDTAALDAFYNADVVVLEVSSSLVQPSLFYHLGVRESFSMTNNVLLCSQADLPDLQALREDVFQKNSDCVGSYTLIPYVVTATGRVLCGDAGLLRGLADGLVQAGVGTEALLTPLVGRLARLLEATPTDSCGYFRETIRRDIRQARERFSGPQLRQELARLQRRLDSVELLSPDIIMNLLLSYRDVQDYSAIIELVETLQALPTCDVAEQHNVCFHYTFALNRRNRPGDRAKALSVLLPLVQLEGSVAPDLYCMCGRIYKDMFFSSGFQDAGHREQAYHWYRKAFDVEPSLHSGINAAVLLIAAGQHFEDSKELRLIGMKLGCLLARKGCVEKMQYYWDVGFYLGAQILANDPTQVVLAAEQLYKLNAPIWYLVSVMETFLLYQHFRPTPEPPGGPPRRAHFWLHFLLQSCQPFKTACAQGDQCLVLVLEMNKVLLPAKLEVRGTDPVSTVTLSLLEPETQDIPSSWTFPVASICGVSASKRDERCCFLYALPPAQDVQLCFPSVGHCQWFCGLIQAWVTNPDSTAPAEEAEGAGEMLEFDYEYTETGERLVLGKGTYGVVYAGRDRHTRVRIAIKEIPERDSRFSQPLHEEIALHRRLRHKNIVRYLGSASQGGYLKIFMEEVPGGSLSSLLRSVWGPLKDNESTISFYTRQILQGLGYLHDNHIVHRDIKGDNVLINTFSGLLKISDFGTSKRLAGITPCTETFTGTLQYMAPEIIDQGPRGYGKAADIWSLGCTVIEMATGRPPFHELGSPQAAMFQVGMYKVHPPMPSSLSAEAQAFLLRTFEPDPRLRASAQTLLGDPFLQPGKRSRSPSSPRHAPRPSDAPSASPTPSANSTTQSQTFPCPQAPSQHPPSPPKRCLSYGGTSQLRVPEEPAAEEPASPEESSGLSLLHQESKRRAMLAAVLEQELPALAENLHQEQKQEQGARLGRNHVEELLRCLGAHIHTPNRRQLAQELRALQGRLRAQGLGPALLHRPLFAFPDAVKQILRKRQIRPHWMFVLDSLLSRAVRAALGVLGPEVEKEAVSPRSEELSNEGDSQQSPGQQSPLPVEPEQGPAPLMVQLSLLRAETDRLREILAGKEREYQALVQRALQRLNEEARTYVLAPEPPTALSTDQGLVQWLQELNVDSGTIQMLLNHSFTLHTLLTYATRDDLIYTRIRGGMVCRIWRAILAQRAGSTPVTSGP
Sequence of UniProt Q9UKS7 (whole entry, looked up): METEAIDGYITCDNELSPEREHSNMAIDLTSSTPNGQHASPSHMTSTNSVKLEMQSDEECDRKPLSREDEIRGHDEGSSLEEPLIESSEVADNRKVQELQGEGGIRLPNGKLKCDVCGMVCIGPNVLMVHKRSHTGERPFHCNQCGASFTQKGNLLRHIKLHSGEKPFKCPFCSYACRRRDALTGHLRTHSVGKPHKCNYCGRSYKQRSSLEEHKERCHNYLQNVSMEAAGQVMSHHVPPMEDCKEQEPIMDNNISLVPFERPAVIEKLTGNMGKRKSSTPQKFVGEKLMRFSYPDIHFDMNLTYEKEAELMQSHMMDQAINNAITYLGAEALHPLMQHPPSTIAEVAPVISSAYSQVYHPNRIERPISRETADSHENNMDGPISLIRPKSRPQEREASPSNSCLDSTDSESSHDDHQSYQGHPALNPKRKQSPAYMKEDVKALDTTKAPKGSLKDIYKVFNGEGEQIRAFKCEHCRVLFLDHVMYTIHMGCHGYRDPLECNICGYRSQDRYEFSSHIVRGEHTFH
Sequence of UniProt Q9Y6R4 (whole entry, looked up): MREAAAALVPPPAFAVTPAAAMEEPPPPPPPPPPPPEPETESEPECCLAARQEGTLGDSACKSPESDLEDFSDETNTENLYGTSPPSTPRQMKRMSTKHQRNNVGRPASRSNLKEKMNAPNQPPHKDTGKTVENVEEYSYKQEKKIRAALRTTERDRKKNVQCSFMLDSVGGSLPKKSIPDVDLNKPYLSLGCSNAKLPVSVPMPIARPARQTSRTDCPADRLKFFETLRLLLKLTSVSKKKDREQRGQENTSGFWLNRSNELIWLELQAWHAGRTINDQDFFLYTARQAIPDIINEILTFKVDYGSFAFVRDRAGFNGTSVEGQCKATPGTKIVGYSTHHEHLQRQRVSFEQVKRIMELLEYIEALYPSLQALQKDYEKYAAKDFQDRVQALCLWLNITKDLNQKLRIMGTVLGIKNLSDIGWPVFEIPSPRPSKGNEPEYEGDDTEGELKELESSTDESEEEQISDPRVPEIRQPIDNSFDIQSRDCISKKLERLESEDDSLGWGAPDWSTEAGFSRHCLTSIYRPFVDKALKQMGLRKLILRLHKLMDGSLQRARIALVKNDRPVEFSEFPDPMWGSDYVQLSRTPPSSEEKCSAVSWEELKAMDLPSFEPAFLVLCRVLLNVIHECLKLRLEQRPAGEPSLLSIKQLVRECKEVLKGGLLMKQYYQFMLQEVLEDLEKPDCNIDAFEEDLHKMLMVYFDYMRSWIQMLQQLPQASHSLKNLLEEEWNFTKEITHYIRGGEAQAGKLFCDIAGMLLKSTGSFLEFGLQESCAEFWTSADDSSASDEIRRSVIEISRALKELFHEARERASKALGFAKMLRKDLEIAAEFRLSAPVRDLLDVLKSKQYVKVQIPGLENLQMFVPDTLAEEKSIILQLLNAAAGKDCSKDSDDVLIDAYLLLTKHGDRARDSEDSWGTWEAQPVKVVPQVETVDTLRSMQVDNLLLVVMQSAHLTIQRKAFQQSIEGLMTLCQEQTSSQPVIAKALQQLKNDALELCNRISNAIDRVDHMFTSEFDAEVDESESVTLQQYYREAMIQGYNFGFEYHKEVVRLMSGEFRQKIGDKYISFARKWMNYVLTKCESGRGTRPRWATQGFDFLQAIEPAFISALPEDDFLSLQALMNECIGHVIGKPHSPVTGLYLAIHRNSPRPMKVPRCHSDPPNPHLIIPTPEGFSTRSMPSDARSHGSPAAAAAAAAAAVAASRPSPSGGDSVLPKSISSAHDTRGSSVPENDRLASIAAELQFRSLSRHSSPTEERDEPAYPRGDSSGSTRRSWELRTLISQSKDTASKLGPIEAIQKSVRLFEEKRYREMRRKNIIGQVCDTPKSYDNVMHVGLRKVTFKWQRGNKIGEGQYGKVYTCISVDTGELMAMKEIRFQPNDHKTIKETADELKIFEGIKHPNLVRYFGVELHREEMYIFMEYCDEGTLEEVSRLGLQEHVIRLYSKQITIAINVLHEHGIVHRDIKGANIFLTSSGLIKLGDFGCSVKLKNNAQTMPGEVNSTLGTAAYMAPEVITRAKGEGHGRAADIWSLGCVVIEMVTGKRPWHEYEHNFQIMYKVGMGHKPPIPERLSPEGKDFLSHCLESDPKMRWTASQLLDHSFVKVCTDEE

Set 1
Target: tungstate, free oxyanion
Method: microfluidic competitive inhibition
Sample: in vitro, cell-free expressed
Tested at: not given
Notes: derived from inhibition constants, unchanged parent 2230 nM
Reading: lower = stronger binding
Starting sequence: PafA, mature enzyme, eGFP fusion (Elizabethkingia meningoseptica, UniProt Q9KJX5); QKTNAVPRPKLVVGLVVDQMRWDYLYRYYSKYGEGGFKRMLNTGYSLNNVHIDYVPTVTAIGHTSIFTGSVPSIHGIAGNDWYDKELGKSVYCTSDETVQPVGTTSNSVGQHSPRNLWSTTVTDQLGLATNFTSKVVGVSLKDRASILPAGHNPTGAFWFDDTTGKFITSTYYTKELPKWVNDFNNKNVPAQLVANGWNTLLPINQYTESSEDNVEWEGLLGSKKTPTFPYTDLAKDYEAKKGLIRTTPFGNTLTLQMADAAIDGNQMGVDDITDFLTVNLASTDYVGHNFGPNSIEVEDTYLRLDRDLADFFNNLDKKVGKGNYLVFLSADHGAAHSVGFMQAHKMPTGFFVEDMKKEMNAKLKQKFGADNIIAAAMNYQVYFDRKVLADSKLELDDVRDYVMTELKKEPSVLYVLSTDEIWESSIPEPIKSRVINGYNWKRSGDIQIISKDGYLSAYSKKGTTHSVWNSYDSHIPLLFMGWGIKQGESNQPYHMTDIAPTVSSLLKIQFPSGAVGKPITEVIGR
Variant	oxyanion analog dissociation constant [µM]
E359G	2.03
Q487V	2.7
E522G	2.3
P101V	1.96
G219A	2.08
L202G	1.86
K367V	2.71
I373G	1.68

Set 2
Structure (SMILES): Cn1cncc1[C@@](O)(COc1ccc(C#N)cc1-c1ccc(OC(F)(F)F)cc1)c1ccc(C#N)cc1
Method: competition with immobilised ligand
Tested at: 1 µM
target	assay	remaining binding [%]
PIK3CA (Homo sapiens, UniProt P42336, Q546K)	cell-free assay	85
MAP3K4 (Homo sapiens, UniProt Q9Y6R4)	cell-free assay	80
DSTYK (Homo sapiens, UniProt Q6XUX3)	cell-free assay	100
NEK9 (Homo sapiens, UniProt Q8TD19)	cell-free assay	100
ACVR1B (Homo sapiens, UniProt P36896)	cell-free assay	100
Myosin-IIIb (MYO3B, Homo sapiens, UniProt Q8WXR4)	binding	55
RIOK3 (Homo sapiens, UniProt O14730)	cell-free assay	90
MAPK10 (Homo sapiens, UniProt P53779)	cell-free assay	75
MAPK15 (Homo sapiens, UniProt Q8TD08)	cell-free assay	100
STK32C (Homo sapiens, UniProt Q86UX6)	cell-free assay	80
CHUK (Homo sapiens, UniProt O15111)	cell-free assay	100
EGFR (Homo sapiens, UniProt P00533, T790M)	cell-free assay	68
INSRR (Homo sapiens, UniProt P14616)	cell-free assay	96
MAP3K6 (Homo sapiens, UniProt O95382)	cell-free assay	100
SBK1 (Homo sapiens, UniProt Q52WX2)	cell-free assay	100
TAOK3 (Homo sapiens, UniProt Q9H2K8)	cell-free assay	100

Set 3
Target: CCNB1, cyclin fold, Cln2 fusion (human)
Method: yeast growth competition, sequencing
Sample: yeast
Notes: strong parent motif
Reference: not given
Reading: higher = stronger binding
Starting sequence: viral docking peptide; YKVKRRLVFGADD; partner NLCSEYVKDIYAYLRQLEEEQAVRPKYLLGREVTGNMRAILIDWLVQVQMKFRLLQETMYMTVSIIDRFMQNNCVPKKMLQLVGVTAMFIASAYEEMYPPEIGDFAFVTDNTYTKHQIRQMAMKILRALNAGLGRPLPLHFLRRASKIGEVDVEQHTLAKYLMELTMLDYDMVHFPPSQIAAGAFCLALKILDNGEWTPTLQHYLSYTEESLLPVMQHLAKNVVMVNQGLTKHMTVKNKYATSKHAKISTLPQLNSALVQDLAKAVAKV
Variant	normalised enrichment score
R5F	0.607
L7Y	0.314
A11D	5
V8N	3.82
K4S	3.73
V3Q	0.641
F9L	1.01
K2T	4.28

Single results of other studies
Compound	target	assay	system	setting	quantity	value
O=C1CCC(N2Cc3c(ccc4c3OCC43CCN(Cc4ccccc4)CC3)C2=O)C(=O)N1 (stereo not drawn)	CRBN/Zinc finger protein Helios (Homo sapiens, UniProt Q96SW2+Q9UKS7)	degrader, HiBiT	HEK293	1.524 nM, 6 h	protein remaining	92.8%

Excerpt of the above (set 2):
target	assay	remaining binding [%]
TAOK3 (Homo sapiens, UniProt Q9H2K8)	cell-free assay	100
RIOK3 (Homo sapiens, UniProt O14730)	cell-free assay	90
STK32C (Homo sapiens, UniProt Q86UX6)	cell-free assay	80
NEK9 (Homo sapiens, UniProt Q8TD19)	cell-free assay	100
MAPK15 (Homo sapiens, UniProt Q8TD08)	cell-free assay	100
